Measured values collected from several papers.
A part holds a random share of what one study measured. Changes are numbered by the printed parent chain.

Set 1 — technique: RNA Bind-n-Seq; form: RNA; sample: in vitro; tested at: 200 nM; notes: whole 134-nt RNA, ends assumed; together with: 150 mM LiCl; reference: input library; reading: higher = stronger binding; each molecule: 7-deaza-guanosine replaces G
Target: Ras GTPase-activating protein-binding protein 1, full length (G3BP1, Homo sapiens, UniProt Q13283)
Chain of UniProt Q13283 (whole entry, looked up): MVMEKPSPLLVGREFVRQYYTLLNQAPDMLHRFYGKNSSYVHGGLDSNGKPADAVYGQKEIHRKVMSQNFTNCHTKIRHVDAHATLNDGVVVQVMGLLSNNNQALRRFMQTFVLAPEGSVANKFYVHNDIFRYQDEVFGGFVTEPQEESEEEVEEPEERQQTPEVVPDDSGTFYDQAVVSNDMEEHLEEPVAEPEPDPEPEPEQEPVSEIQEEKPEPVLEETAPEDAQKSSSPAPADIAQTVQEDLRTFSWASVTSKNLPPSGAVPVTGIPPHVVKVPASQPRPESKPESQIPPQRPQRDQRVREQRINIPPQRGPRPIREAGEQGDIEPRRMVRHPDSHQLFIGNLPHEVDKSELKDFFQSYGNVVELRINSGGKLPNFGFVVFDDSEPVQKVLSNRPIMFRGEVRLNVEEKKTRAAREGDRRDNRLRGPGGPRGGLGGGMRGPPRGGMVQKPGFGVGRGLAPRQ
Constant ends, left off below: GGGAGUUCUACAGUCCGACGAUC … UGGAAUUCUCGGGUGUCAAGG
| Sequence | log2 enrichment |
| --- | --- |
| CACAGACAACACGCACCAACACAGACACAGAGGGAAGGGGUUGGGAUGGGGACAGGGUGCACAGCAGGGCGGGGUAGGACCCCAGCCCCU | 0.166 |
| GUCCUGUGCUACACAUCGUAUGUACCGAAUCGGGGUGGGGAAAAAGGGGAAAAAGGGGAAAGUAUUAUGUUACGCCGUUCGGAUCUGCAC | 0.489 |
| CCUGUGCUACACAUCGUAUGUACCGAAUCGGGGUUUUUUUGGGGUUUGGGGUUUUUGGGGAAAGUAUUAUGUUACGCCGUUCGGAUCUGC | 0.386 |
| GUCCUGUGCUACACAUCGUAUGUACCGAAUCGGGUUUUUUUGGGUGGGUUUUUUUGGGAAAGUAUUAUGUUACGCCGUUCGGAUCUGCAC | 0.0635 |
| CUGUGCUACACAUCGUAUGUACCGAAUCGGGGUUUGGGGAAAAAAAGGGGUUUUUUUGGGGAAAGUAUUAUGUUACGCCGUUCGGAUCUG | 0.185 |
| UGGGAGGUGGAUUUUGUUUAUUUUUUUAGCUCAUUUCCAGGGGUGGGAAUUUCUUUUUAAUAUGUGUCAUGAAUAAAGUUGUUUUUGAAA | -0.415 |
| AAGUCCUGUGCUACACAUCGUAUGUACCGAAUCGGGCCCCGGCCCCGGGGCCCCGGGAAAGUAUUAUGUUACGCCGUUCGGAUCUGCACU | -1.84 |
| AGUCCUGUGCUACACAUCGUAUGUACCGAAUCGGGCCCCCGGGCCCCCGGGCCCCCGGAAAGUAUUAUGUUACGCCGUUCGGAUCUGCAC | -1.55 |
| CAAGUCCUGUGCUACACAUCGUAUGUACCGAAUCGGUUUGGUUUUUGGAAAAAGGAAAGUAUUAUGUUACGCCGUUCGGAUCUGCACUUC | -0.446 |
| CCUGUGCUACACAUCGUAUGUACCGAAUCGGGAAAAAAGGGAAAAAAGGGGAAAAAAGGGGAAAGUAUUAUGUUACGCCGUUCGGAUCUG | 0.422 |
| ACCAUGCAGGUGGGCAUCUUUGGGAAGUGGGGCAAGGGGGGGAUAGGGAGGGGGGUAACACUUUGAAAACAGGUGGUCCCAGGUCGUUUC | -0.103 |

Set 2 — technique: universal PBM; form: double-stranded DNA, one strand shown; sample: in vitro; tested at: 600 nM; reading: higher = stronger binding
Target: Sal-like protein 4, full length isoform A (SALL4, Homo sapiens, UniProt Q9UJQ4, residues 1-1053)
Chain of UniProt Q9UJQ4 (whole entry, looked up): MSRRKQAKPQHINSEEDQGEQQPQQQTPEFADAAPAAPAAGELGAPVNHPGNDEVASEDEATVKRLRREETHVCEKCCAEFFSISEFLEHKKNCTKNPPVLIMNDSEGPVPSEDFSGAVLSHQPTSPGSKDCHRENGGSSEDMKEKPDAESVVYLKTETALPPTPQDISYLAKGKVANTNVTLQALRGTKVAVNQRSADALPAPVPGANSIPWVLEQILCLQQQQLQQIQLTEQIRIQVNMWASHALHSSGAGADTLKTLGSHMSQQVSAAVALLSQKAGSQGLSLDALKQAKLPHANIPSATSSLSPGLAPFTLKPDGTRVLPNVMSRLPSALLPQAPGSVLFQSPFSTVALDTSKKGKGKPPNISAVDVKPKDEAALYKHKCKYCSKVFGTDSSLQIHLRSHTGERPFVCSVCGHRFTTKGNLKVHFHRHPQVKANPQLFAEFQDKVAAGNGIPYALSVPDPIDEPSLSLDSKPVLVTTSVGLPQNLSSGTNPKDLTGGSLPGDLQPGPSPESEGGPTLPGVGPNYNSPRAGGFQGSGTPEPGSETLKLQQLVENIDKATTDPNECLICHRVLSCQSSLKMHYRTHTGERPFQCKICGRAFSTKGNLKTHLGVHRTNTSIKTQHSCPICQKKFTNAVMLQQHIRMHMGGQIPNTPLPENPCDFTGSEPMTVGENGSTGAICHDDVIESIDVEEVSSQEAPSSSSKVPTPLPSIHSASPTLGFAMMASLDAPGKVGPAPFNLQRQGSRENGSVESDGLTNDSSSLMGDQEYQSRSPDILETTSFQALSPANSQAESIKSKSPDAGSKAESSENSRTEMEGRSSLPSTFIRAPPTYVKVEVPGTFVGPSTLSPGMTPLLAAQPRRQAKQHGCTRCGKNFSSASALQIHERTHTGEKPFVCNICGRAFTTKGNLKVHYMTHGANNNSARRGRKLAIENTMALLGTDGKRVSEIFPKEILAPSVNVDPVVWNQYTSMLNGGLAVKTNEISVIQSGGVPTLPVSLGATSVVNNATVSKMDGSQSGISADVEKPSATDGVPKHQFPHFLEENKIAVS
Notes: 8-mer, flanks averaged, mean of replicates
| Sequence | E-score |
| --- | --- |
| GGTCTCAA | -0.124 |
| AATCCTTG | 0.16 |
| CGGTTGTC | -0.157 |
| GTGCCCCA | -0.28 |
| CCGAAGCG | -0.291 |
| AGTTCGAC | -0.173 |
| CAGGGCTA | -0.136 |
| ATATTGCC | 0.302 |
| ACCTCGTC | -0.0654 |
| AGGTGCCG | -0.233 |
| TGTTGTAA | 0.267 |
| AGTCACTC | -0.085 |
| CCAGGGAG | -0.337 |
| CGCGGTAA | -0.0493 |
| CCAAGCTA | -0.164 |
| TAGCCAGA | -0.047 |
| ACAGTGGC | -0.191 |

Set 3 — target: CCNF, cyclin fold, Cln2 fusion (human); technique: yeast growth competition, sequencing; sample: yeast; notes: strong parent motif; reference: not given; reading: higher = stronger binding
Starting sequence: RRM2 docking peptide (human); SKTARRIFQEPTE
| Variant | normalised enrichment score |
| --- | --- |
| SATARRIFQEPTE [K2A] | 4.22 |
| SKTARRIFAEPTE [Q9A] | 5.13 |
| SKTARAIFQEPTE [R6A] | 3.83 |
| SKTARRIFQEPTA [E13A] | 4.17 |
| SKTAARIFQEPTE [R5A] | 0.111 |
| AKTARRIFQEPTE [S1A] | 4.58 |

Set 4 — technique: RNA Bind-n-Seq; form: RNA; sample: in vitro; tested at: not given; reference: input RNA pool; reading: higher = stronger binding
Target: RING finger protein unkempt homolog, zinc fingers 1-6, GST-SBP tag (UNK, Homo sapiens, UniProt Q9C0B0, residues 30-357)
Chain of UniProt Q9C0B0 (30-357, looked up): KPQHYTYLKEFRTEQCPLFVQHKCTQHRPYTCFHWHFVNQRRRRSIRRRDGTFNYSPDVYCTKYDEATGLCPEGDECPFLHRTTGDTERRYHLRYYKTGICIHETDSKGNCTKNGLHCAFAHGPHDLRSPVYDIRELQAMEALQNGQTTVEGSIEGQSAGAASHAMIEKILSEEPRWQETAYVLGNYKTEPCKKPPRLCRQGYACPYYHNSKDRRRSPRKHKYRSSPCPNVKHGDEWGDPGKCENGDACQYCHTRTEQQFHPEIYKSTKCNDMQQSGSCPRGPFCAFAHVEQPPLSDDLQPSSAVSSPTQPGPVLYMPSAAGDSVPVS
Notes: RNA with constant flanks, human and mouse sites, ends assumed
Constant ends, left off below: GGGAGUUCUACAGUCCGACGAUC … CAACAGAGGAUUGAGCAUCA
| Sequence | bound/input enrichment [ratio] |
| --- | --- |
| GUCCCCACAAAAGCCAGGUUCCCUGCAUUUGAACUCUGAAAGGAUAGCAUGCCACCUGCAACUCACUGCAUGACCCUUUCUGUAUAUUCAAACCCAAGCUAAGUGCUUCCGUUGCUUUCC | 0.322 |
| AUUUUCACAAGAAUGUUUGCAGAUCCUCAUGGCAAGGUGUUCAGCAUGUUCUUGGAGACUCUAGUAGAUUUCAUACAAGUCCACAAAGAUGAUCUUCAAGAUUGGUUGUUUGUUCUGCUG | 0.171 |
| UGCAUGCCUGUUCAAUUCUUUUGUUUCUUCUCCUUCCCCCUCCCCCUACCUCCUUCCCCUCACUCCUCCCCUCCUUCGCUCGCUCAACCUCUUUUGUUCAGUAUGUGUAACUUGAAGCUA | 1.32 |
| UUGACUUUCUUUGUCAAUACCACAAACCAGCAAGCAAAAUUCCUGCCUUUCUAAAUGUGGUGGAUAUUGCUGGCCUUGUGAAAGGAGCUCACAAUGGGCAGGGCCUGGGGAAUGCUUUUU | 0.243 |
| AUGCAGUGGCUUGGGAAACAUGUGGACUCCGAGGGAGAAAUAAAAUCCGGCCAGCUCUCUCUUAGAUUUGUUUCAUCCUACGUGUCUGAAGUAGAAAUAACCCCAUCUUGUAUACCUGUG | 1.42 |
| UCGGUACUUGAUGCAGCUCUUCAUCCUCCACCCCGCGGACCUUUUCCUCCAGGAGAUCUUUUCAGUCAGCCAGAAAGACCUUUUCUGGCCCCUGGAAGACCAAGUAUAGACAAUGUUCCC | 0.258 |
| UCCCCACCGGCAAUGGAGCGGUUGACGUUGCCUCUCGGCGGCGCGGCGGCGGUGGACGAGUACCUGGAGUACCGGAGGUAUAAACAACAUAAAACUGACUUGGAAGCGAUUCCUCAGCAG | 0.243 |
| CACAUAAUAACAUUCUUAAAUGAAAUCACUUCAAUAUGUUUCUCUGAAGUCUUUCUCUCUGUUUACCAGAGUUUAUCUAAGAACUUAUAUGACUUAAACAAUACAGUGUGUUACACUUUA | 0.45 |
| CGGGACGGGCGGCGCCCAUCCUGCGACAGAACACGUUCGGGUUUUGGUUUUGUUUCGUUCACCUCUGUCUAGAUGCAACUUUUGUUCCUCCUCCCCCACCCCCGCCCCCAGCUUCAUGCU | 0.783 |
| UAAAAUCUUUGUACUUUUUACAUGAUUGCUGUAUGUAUAUUUUGUUUUAAAUCUAAUAAAAUUAGGGACAGAGAGUGACUCGCUGGGGUUCUUGGGGUCCUUGAGAAUUAAAUUUGUCAA | 0.323 |
| GGAGCACUCAAAUCAGUGGGAAUUACAAUUUUUCUUUUUUGAAAAAAGACACUUUUUAAAAAAUUUUAUUUAUUUAAUGUAUGAGUGCUCUGCUGCAUAUACAUCUGCCUGCCUGAAGAA | 1.4 |

Set 5 — technique: protein binding microarray; form: double-stranded DNA, one strand shown; sample: in vitro; tested at: not given; reference: not given; reading: higher = stronger binding
Target: Histone acetyltransferase KAT6A, winged helix 1, GST fusion (KAT6A, Homo sapiens, UniProt Q92794, residues 1-85)
Notes: 8-mer, flanks averaged, mean of 2 arrays, mostly near background
Residues (chain): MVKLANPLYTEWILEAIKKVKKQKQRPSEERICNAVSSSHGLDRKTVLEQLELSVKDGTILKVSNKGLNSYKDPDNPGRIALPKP
| Sequence | E-score |
| --- | --- |
| GAATTTTA | -0.173 |
| GTTGGGAA | -0.183 |
| GAACGGCA | 0.254 |
| ACTCTCGA | -0.262 |
| CTACCTCA | -0.143 |
| AGCATTAG | -0.0285 |
| CACATATA | -0.0506 |
| ACTCATAC | -0.185 |
| CGGTACAC | 0.192 |
| CGGAGCAA | 0.03 |
| CTAATATA | -0.0293 |
| GCTCTCAA | -0.0185 |
| ACTCCAAA | -0.145 |
| CTGGTCTA | -0.18 |
| ATTTATTA | -0.0174 |
| TAGGTCGA | -0.0581 |
| ACGCACAG | 0.19 |
| GCATGCGC | 0.404 |
| GACGAGCC | 0.0498 |
| AGTTTGAC | -0.0443 |
| CTCATTGC | -0.278 |
| CAAGCGAG | -0.00891 |

Set 6 — technique: RNA Bind-n-Seq; form: RNA; sample: in vitro; tested at: 365 nM; reference: no-protein control; reading: higher = stronger binding
Target: RNA binding protein fox-1 homolog 2, RRM domain, GST-SBP tag (RBFOX2, Homo sapiens, UniProt O43251-10, residues 100-194)
Notes: natural RNA segment, single round, ends assumed
Constant ends, left off below: GGGAGUUCUACAGUCCGACGAUC … UGGAAUUCUCGGGUGCCAA
Target sequence (chain): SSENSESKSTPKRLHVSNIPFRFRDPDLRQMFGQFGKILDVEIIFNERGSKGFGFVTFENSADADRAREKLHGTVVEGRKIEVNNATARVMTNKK
| Sequence | RBNS enrichment (R) |
| --- | --- |
| UUUUUACAACCAUCCGGUGUGGUUUGGAGGAUUUGUUUUUUUUUUUUCCCAACAGAAAAGAACAGCCAUUAGAAGAAGGCUCCCAUUUUCUGAUGUUCCGCCCCACUGUG | 0.313 |
| AAACUUCAGAGAAGAACCUUAAAGCAGACCAUCCAUUUUUGCAUGCUCUCUUCUAAGUAGAAUGUUCAAUGUAACUAAAACUAAAAUUGCAUGUCAAAGAGACCUAGGUU | 9.17 |
| UUUUCCCCCACCCUCCCAUGAGACUGCCCUGCCCAGGUAUCCUGGGGGAAGAGGAGAUGUGAUCAGGCCCCACCCCUGUAAUCAGGCAAGGAGGAGGAGUCAGAUGAGGC | 0.477 |
| GGGGUGAUGUUUUACUUUUCACAGUAUGGGCUACACAGCAGCUGUUCAACAAGAGUAAAUAUUGUCACAACACUGAACCUCUGGCUAGAGGACAUAUUCACAGUGAACAU | 0.324 |
| ACAGAGGAGGAGAUGGAGCUCUAGACACCCGUUCUGCUCUAACUUGACAAGUCGGAGAAGGCUCCUGCGUUCAGAAAUGAGCCUGCCUGCAGAGUAUAGGGGCCUGAAAG | 0.628 |
| UGAUCGCCAAGUUCAAAGCUGUGCACAUGUGGACACUCAAUAAAUGUUUAUUGGUGAUGAGAAGCCUCUUUGUGGUCUGCCUUGCACCUCCUCUGCCUUAACCUGCUCCU | 0.442 |
| AAUUAACAAAUCUCCCUUCACUCACCACUAUCCUCAUUCUUGCAGUUGUCAAGGUGUAAGCCUCACUGUAAGUUACAAAGCUACCACUCCCCUCUUUAAGAACACAUAGC | 0.804 |
| AGAGAACUAUAUGAAUUCUAACAAGUCAUAGGUUAAUAUUUAAGACACUGAAAAAUCUAAGUGAUAUAAAUCAGAUUCUUCUCUCUCAAUUUUAUCCCUCACCUGUAGCA | 6.46 |
| AGAUGGUCAAGUUUGUAAAAUAUUUGUUUGUGCUUUUUCCCCCUCCUUACCUGACCCCCUACGAGUUUACAGGUCUGUGGCAAUACUCUUAACCAUAAGAAUUGAAAUGG | 1.42 |
| UAAGAAAAACAGUUAACAUGAGACAAAGUUUAGGAAAAACUAAUAAAAGAAACCUGUCUUAACUUGAUGGUUUUCUUAAUUUUCUUAAGUGGGCUGUUUGUGUGUGUGUG | 1.2 |
| UAGCACCCAAAUUAAGUUGCUUAAGAGAGGAAAUGUACAUCUUGUAUAACUUAGGGAGCGAAGAAAAUGUAGGCGCGAAAGUGAAAAGUGAGGCAGCUAGUUCUUCCUAU | 0.494 |
| UCACACAUCUUGAGCGAGAAGGCAUCUUCCUGGAAGACACAGCCUGCUUCUACCUGGCAGAGAUCACACUAGCCCUGGGCCAUCUCCAUUCCCACGGCAUCAUCUACCGG | 0.259 |
